Assay results pooled from the literature.
Every numbered part comes from another study and shows a few of its results, in no order. Substitutions count along the parent as printed.

Series 1
Target: Sal-like protein 4, full length isoform A (SALL4, Homo sapiens, UniProt Q9UJQ4, residues 1-1053)
UniProt Q9UJQ4, sequence (whole entry, looked up): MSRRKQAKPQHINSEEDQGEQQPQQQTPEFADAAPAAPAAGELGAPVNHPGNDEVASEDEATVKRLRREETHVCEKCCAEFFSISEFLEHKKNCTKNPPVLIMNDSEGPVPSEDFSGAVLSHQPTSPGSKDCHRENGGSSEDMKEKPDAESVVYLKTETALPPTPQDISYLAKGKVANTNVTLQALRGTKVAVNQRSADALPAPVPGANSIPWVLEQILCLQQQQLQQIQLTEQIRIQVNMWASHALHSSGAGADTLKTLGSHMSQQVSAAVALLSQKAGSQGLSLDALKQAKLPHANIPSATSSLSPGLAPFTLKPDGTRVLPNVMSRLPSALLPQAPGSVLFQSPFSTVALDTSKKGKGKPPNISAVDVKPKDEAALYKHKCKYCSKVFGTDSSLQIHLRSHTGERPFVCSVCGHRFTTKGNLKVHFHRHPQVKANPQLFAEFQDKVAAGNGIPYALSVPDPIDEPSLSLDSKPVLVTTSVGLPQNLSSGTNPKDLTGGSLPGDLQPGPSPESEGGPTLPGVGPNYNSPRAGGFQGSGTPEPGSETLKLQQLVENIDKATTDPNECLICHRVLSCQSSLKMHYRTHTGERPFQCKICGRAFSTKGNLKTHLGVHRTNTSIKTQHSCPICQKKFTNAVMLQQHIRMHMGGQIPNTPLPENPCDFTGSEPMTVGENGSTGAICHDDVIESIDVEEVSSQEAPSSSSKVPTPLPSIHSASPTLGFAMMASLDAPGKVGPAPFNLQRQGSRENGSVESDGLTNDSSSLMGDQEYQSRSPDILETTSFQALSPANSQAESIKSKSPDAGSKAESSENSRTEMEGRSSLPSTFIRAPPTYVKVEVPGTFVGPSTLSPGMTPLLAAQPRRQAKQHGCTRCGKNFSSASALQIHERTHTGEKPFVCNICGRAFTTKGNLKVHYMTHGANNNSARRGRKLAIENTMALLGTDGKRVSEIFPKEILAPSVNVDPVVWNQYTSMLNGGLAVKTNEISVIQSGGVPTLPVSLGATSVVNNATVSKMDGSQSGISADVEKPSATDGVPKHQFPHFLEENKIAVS
Method: universal PBM
Form: double-stranded DNA, one strand shown
Medium: in vitro
Tested at: 600 nM
Setting: 8-mer, flanks averaged, mean of replicates
Direction: higher = stronger binding
| Strand | E-score |
| --- | --- |
| GGTACGGA | -0.244 |
| CGGGGACC | -0.355 |
| CTCTGGGA | -0.291 |
| GTCGACAC | -0.0726 |
| CCAAGCGG | -0.394 |
| GAGTTGAA | 0.075 |
| CGGCGTCC | -0.405 |
| ACACCATG | -0.19 |
| GTCATGGA | 0.0221 |
| AACATAGC | 0.172 |
| CTGCGGTA | 0.0224 |
| ATATCCTA | 0.183 |
| GGCGTATA | 0.0183 |
| AGGATCCG | -0.333 |
| AAGTATGA | 0.299 |
| CCTCATAG | -0.0275 |
| ACCTGCCG | -0.304 |
| TGTGCCAA | 0.196 |
| ACTTTAAA | 0.334 |
| ACGACCAT | -0.0895 |
| CGGGCAAA | -0.172 |
| AATTGTCC | 0.095 |

Series 2
Substance: PhoQ, residues 284 288 289 292 302 303 SSTLLI
Method: Sort-seq
Item: YFP reporter
Medium: E. coli
Setting: PhoQ-PhoP variant library
Added: 10 µM Mg2+
Reference: high Mg2+ state
Direction: higher = stronger signaling
| target | fold induction |
| --- | --- |
| PhoP, residues 12 14 15 18 19 AYFRS (Escherichia coli, UniProt P23836) | 2.01 |
| PhoP, residues 12 14 15 18 19 SFCSL (Escherichia coli, UniProt P23836) | 28.4 |
| PhoP, residues 12 14 15 18 19 HHYTI (Escherichia coli, UniProt P23836) | 0.994 |

Series 3
Target: ABI1, truncated, D143A, DHFR fusion (Arabidopsis thaliana)
Method: DHFR PCA, deep sequencing
Medium: yeast
Setting: methotrexate growth selection, single substitutions
Added: (+)-ABA 200 µM
Reference: wild-type fitted maximum
Direction: higher = stronger binding
Starting sequence: PYL1, truncated, DHFR fusion (Arabidopsis thaliana); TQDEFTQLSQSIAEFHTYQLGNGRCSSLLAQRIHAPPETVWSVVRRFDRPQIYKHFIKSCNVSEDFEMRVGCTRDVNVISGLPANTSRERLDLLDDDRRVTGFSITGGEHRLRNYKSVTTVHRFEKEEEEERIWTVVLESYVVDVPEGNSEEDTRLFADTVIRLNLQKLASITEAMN; partner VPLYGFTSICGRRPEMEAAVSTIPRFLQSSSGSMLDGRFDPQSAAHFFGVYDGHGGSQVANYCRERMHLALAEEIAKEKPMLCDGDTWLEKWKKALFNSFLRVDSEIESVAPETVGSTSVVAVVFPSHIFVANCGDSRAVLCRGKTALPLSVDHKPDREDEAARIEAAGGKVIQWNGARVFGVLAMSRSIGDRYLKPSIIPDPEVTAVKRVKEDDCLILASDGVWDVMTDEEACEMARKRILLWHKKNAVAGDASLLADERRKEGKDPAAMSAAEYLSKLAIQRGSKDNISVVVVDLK
| Variant | relative binding score [%] |
| --- | --- |
| T119E | -1.46 |
| M176G | 98.9 |
| Q51L | 50.4 |
| S9I | 76.7 |
| L93R | 101 |
| A158Q | 16.1 |
| E38P | 73.8 |
| Q51K | 51.8 |
| V121C | 83.3 |
| I79D | 53.6 |
| S140V | -3.66 |
| L138E | -4.49 |
| V118W | 5.36 |

Series 4
Target: Histone acetyltransferase KAT6A, both winged helices, GST fusion (KAT6A, Homo sapiens, UniProt Q92794, residues 1-181)
Method: protein binding microarray
Form: double-stranded DNA, one strand shown
Medium: in vitro
Tested at: not given
Setting: 8-mer, flanks averaged, mean of 2 arrays, mostly near background
Reference: not given
Direction: higher = stronger binding
Target sequence (chain): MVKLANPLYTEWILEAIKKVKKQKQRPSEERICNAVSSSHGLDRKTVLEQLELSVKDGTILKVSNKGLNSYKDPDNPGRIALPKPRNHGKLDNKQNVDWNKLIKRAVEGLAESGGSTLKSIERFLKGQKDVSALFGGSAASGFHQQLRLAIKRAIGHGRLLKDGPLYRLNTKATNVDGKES
| Strand | E-score |
| --- | --- |
| GACGCGCA | 0.308 |
| CGAGGGGC | -0.0935 |
| ATCTTTGC | -0.00585 |
| TGACCTCA | -0.137 |
| GTTCACAA | 0.112 |
| ATCCTAGA | 0.0328 |
| GCCGAAAA | 0.194 |
| CTGAAAAA | -0.156 |
| AGCCTTTA | -0.0444 |
| CCAACTCG | -0.158 |
| GGCGTCTA | 0.167 |
| CCATAATC | -0.184 |
| CCAGAACG | 0.107 |
| CACAAAGG | -0.159 |
| CTTAGGGA | -0.108 |
| ATCGTACA | -0.00051 |
| ACTGCGGG | 0.117 |
| GAATTAAC | -0.0739 |
| ACCCTCTC | -0.278 |
| GGCCTGAC | -0.0408 |
| CTCCCCGA | 0.0922 |
| TATTAGAA | -0.0973 |
| TATGCTAA | -0.207 |

Series 5
Target: CCNB2, cyclin fold, Cln2 fusion (human)
Method: yeast growth competition, sequencing
Medium: yeast
Setting: strong parent motif
Reference: not given
Direction: higher = stronger binding
Starting sequence: E2F1 docking peptide (human); PPVKRRLDFETDH
| Variant | normalised enrichment score |
| --- | --- |
| V3A | 1.06 |
| P2I | 2.92 |
| D12K | 2.35 |
| E10C | 2.83 |
| D12I | 3.56 |
| F9V | 0.00863 |
| F9N | 0.148 |
| L7R | 0.178 |
| F9T | 0.0618 |
| T11I | 3.31 |
| K4T | 1.14 |
| P2A | 2.97 |
| V3P | 0.908 |
| T11Y | 3.92 |
| D12R | 2.61 |
| R5M | 2.27 |
| R6N | 1.07 |
| K4M | 2.43 |
| E10N | 3.24 |
| D12A | 3.4 |
| P2V | 2.94 |
| T11M | 4.1 |
| V3G | -0.132 |
| T11E | 4.36 |
| V3I | 3.77 |

Series 6
Target: RNA binding protein fox-1 homolog 2, RRM domain, GST-SBP tag (RBFOX2, Homo sapiens, UniProt O43251-10, residues 100-194)
Method: RNA Bind-n-Seq
Form: RNA
Medium: in vitro
Tested at: 365 nM
Setting: natural RNA segment, single round, ends assumed
Reference: no-protein control
Direction: higher = stronger binding
All sequences stand within: GGGAGUUCUACAGUCCGACGAUC … UGGAAUUCUCGGGUGCCAA
Target sequence (chain): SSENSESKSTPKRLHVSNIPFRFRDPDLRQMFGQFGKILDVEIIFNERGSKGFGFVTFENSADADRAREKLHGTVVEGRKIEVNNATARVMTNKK
| Strand | RBNS enrichment (R) |
| --- | --- |
| UGUCUCCAUGUUGACACUUCAUCCUAGAUUUAAGGAGAGGCAUCAAUUUUUUUUUUUUUUUGCCUCAAGAGAAAUUUCAAAUAUCCAAAUUAAAACACAGUAGCAUUUGA | 0.446 |
| CAGCUCUCCCCCUCCAUCUUGGGGGGGCGGAGCAGUUGGGCCCAAGCUGCCCGGGAGGGUGGGUGCAGACACAGGCUGAGGACCAGCCCUGGCCCUGCCCCGCCAUCUGC | 0.172 |
| GAGCUAAUGAAGGGCCCUGCCUAGAUCCAGACUUUCUGACAUCAAAUUAGGGAAGUGGAGGAAAUUAUUUGGAAUGUGAUCUAAGUUUUUGUUUUUUUUUAAUGUGUCAA | 1.49 |
| AAUGAGCUGACUGUCUAUUUUAAACUCGAAGGUAAAAAAAUGUAUAUUAUAUUUUUUCACUAUAGGUACAUGUAACAGUAAAACGUGUAACAGCAAAGUAUAUAUUUGAU | 0.513 |
| UUUAUUUAUCUCUCAUUCUGUAUAGAAUUCUUGCCGCCAUCCCAGGUCUAGCCUUAGGAGCAAAUGUAGUAGAUAGUCGAAUAAUAAAUAACUUAAUGUUUUGGACAUAU | 0.456 |
| GUUAUGGUCAGAAGGCCUCUUCUCCCUUCCUCCCUCACUCCCUCUCCUCCUAGCUUUCCCCACAGAGAAUGUUAGACCAGUAUGGCUUCUUGCCUUGAUCCUGUUGUGGC | 0.799 |
| GAGUAUGGGCUGAGCAGGGGGAUUGAAUGUGACUGUUAAAAACACUCAUGUACUGUCCAAAAGUGCCAGAAUGACUCUUCUGCGCAUUCUCCUUUAAGAGCUGCUUGGUU | 0.292 |
| ACAGCGUCGUUGAAGUCCCACUGUUGGCAGUUUUGGCAGUGGUACCUAACUCAUCGUGUUUGCAUUCUUGUUAAGUUUUUUUGGCUUUGGAAUGUGACACAGCCUUUUUG | 1.06 |
| UGAUAGCUUUUCUAAUGUCUGACUAGUAAAUUUUAAAAUGUCAUUCUUUUACAAAUCAUAAUUAGUACUUUUGGUUAUUACCGUCUUCAGUGUUAGCCCAAAGAUUCUGA | 0.551 |
| UUCAAUAGCGGCUGGCUUUUUGUGAUUCAGUAACUUAAAUAUUGCCAGUGACUGAGGAUCCCCUCCAGUCAUGGUUCUGUAUAUUCUUUGAGACAGGUGUUUUCAUCUUC | 0.276 |
| AAGACCAUGUGUCCCCCAAUACUUAGAUUUCACCGUACUUUCUGAUGGUGUUUUUAAAAGGCCAAGUGUUGCAAAAGUUUGCACGUGCAACCGUAUAUUAAUCGCCAGUG | 1.26 |
| GGGGCUAGUAGCUGACCUGCUGCCUCCUGCCCUACUUGUGUGGACAGGAGGCCCACGGGCACUGGGGAAGCUGAGUUCUACAAUCCCGCUGGGGCGCAUGGGCAGGAGAG | 4.81 |

Series 7
Target: Prothrombin, mature alpha-thrombin (F2, Homo sapiens, UniProt P00734)
Method: aptamer microarray, sandwich
Form: DNA with 2'F-ANA
Medium: in vitro
Tested at: 200 nM
Setting: whole 15-mer aptamer, many near background
Added: Cy3 exosite-II aptamer, 400 nM
Direction: higher = stronger binding
Strand: GGTTGGTGTGGTTGG
| Modification | mean fluorescence intensity |
| --- | --- |
| 2'F-ANA at 2 7 9 10 11 13 14 | 90.8 a.u. |
| 2'F-ANA at 1 4 5 7 8 12 15 | 104 a.u. |
| 2'F-ANA at 2 3 8 12 13 14 | 439 a.u. |
| 2'F-ANA at 1 2 3 8 9 11 12 13 | 357 a.u. |
| 2'F-ANA at 2 3 4 6 7 8 10 11 13 | 177 a.u. |
| 2'F-ANA at 3 5 10 12 13 14 | 52.1 a.u. |
| 2'F-ANA at 1 2 4 5 8 9 14 | 43.3 a.u. |
| 2'F-ANA at 2 3 4 5 7 12 14 15 | 53.7 a.u. |
| 2'F-ANA at 5 7 9 10 11 12 14 15 | 47.5 a.u. |
| 2'F-ANA at 1 2 3 5 6 10 14 15 | 45.1 a.u. |
| 2'F-ANA at 2 3 5 10 12 13 14 15 | 140 a.u. |
| 2'F-ANA at 1 2 3 4 10 12 14 | 50 a.u. |
| 2'F-ANA at 1 2 4 6 7 8 9 14 | 52.4 a.u. |
| 2'F-ANA at 2 3 4 5 7 10 12 13 14 | 44.7 a.u. |
| 2'F-ANA at 1 2 7 8 9 11 14 | 55.1 a.u. |
| 2'F-ANA at 3 6 7 8 9 10 12 13 | 540 a.u. |
| 2'F-ANA at 2 5 6 8 9 10 11 13 14 | 47.5 a.u. |
| 2'F-ANA at 4 5 6 7 10 11 14 15 | 44 a.u. |
| 2'F-ANA at 1 4 10 11 14 | 46.3 a.u. |

For quick reference, copied from above (series 3):
| Variant | relative binding score [%] |
| --- | --- |
| S140V | -3.66 |
| V118W | 5.36 |
| Q51L | 50.4 |
| A158Q | 16.1 |
| L93R | 101 |
| L138E | -4.49 |
| M176G | 98.9 |
| I79D | 53.6 |
| S9I | 76.7 |
| Q51K | 51.8 |
| E38P | 73.8 |
| V121C | 83.3 |
| T119E | -1.46 |
